Experimental data of several laboratories.
PIK3CA: Phosphatidylinositol 4,5-bisphosphate 3-kinase catalytic subunit alpha isoform (PIK3CA, Homo sapiens, UniProt P42336)
Sequence of UniProt P42336 (whole entry, unmodified, looked up): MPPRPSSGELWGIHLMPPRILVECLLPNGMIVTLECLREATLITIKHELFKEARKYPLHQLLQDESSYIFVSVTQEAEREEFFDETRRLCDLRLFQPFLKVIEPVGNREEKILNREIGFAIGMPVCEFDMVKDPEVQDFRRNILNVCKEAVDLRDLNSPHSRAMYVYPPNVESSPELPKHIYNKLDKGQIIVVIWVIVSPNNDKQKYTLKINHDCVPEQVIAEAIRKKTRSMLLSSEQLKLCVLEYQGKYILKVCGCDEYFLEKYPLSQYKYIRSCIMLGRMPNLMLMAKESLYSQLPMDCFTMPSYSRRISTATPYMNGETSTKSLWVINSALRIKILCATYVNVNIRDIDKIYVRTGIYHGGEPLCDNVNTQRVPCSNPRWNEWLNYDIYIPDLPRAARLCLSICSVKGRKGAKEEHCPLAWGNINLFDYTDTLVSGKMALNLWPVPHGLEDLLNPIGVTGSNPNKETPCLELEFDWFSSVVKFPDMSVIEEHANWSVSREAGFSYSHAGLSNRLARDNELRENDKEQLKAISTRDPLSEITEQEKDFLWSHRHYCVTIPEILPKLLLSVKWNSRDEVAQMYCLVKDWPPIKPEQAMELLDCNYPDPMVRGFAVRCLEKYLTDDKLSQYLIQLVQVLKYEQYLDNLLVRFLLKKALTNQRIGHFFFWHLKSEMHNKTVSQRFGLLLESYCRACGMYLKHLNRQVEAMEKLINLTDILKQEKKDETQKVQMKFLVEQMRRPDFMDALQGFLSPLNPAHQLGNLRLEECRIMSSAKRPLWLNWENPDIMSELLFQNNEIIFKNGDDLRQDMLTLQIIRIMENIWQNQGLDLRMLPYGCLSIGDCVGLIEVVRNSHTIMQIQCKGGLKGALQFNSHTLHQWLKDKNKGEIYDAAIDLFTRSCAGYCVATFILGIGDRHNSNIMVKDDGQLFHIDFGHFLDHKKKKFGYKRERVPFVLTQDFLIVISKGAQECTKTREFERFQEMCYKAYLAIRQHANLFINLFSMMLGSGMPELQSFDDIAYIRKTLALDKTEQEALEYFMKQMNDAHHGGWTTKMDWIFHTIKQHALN
PIK3CA with p65 alpha: Phosphatidylinositol 4,5-bisphosphate 3-kinase catalytic subunit alpha isoform, with p65 alpha (PIK3CA, Homo sapiens, UniProt P42336)
PIK3CA E545K with p85 alpha: Phosphatidylinositol 4,5-bisphosphate 3-kinase catalytic subunit alpha isoform, with p85 alpha (PIK3CA, Homo sapiens, UniProt P42336, E545K)
UCHL1: Ubiquitin carboxyl-terminal hydrolase isozyme L1 (UCHL1, Homo sapiens, UniProt P09936)
Sequence of UniProt P09936 (whole entry, looked up): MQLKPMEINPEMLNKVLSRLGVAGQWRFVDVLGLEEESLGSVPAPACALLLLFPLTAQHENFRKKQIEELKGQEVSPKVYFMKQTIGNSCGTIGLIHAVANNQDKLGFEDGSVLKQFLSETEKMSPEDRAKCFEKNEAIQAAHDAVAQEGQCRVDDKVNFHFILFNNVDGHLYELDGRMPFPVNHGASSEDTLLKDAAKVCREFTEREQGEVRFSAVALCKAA

| SMILES | target | assay | conditions | scale | quantity | result |
| --- | --- | --- | --- | --- | --- | --- |
| C=CC(=O)N1CCC(COCC(=O)N2CCN(c3nc(-c4cnc(N)nc4C(F)F)nc(N4CCOC[C@@H]4C)n3)CC2)CC1 | PIK3CA | KINOMEscan | 1 µM | – | remaining binding | 0% |
| Cc1nc(NC(=O)N2CCCC2)sc1-c1csc(C(C)(C)C)n1 | PIK3CA | enzyme activity, inhibitor, Kinase-Glo luminescence | 3 µM | – | inhibition | 42% |
| COc1cc(-c2cncc3c2CN(C)Cc2cc(N4CCNCC4)ccc2-3)cc(OC)c1OC | PIK3CA with p65 alpha | kinase activity | 1 µM, p110a/p65a)(h human, added: ATP 10 µM | reference: DMSO | remaining activity | 102% |
| CN(C)C1CCN(CC#Cc2nn(C3CCCC3)c3nc(NCc4ccccc4)ncc23)C1 (stereo not shown) | Phosphatidylinositol 4,5-bisphosphate 3-kinase catalytic subunit alpha isoform, with p85 alpha (PIK3CA, Homo sapiens, UniProt P42336) | enzyme activity, inhibitor, Z'-LYTE | 100 nM | – | inhibition | -3% |
| O=C(CSc1nc2nccnc2c(=O)n1CCc1ccccc1)Nc1nccs1 | PIK3CA E545K with p85 alpha | – | 10 µM, E545K with PIK3R1 | – | inhibition | 28% |
| Cc1ccc(NC(=O)c2ccc(C)c(C(F)(F)F)c2)cc1C#Cc1nn(C2CCC(O)CC2)c2ncnc(N)c12 (stereo not shown) | PIK3CA with p65 alpha | enzyme activity, inhibitor | 10 µM, p110a/p65a)(h human, added: ATP 10 µM | – | remaining activity | 92% |
| COc1ccc2cc(C=C(C#N)C(=O)Nc3nccs3)ccc2c1 | UCHL1 | covalent, intact protein LC-MS | 12.5 µM | – | labelling | 16.7% |
| CS(=O)(=O)Nc1cccc(-c2csc(NC(=O)CSc3nc4nccnc4c(=O)n3CCc3ccccc3)n2)c1 | PIK3CA E545K with p85 alpha | – | 10 µM, E545K with PIK3R1 | – | inhibition | 2% |
| O=C(CCl)Cc1ccc(F)cc1F | UCHL1 | covalent, intact protein LC-MS | 12.5 µM | – | labelling | 20.9% |
| O=C(NC1CCC1)c1ccc2nc(-c3cccc(NS(=O)(=O)NCCN4CCCCC4)c3)cn2c1 | PIK3CA | enzyme activity | 10 µM | – | remaining activity | 100% |
